Results from different studies.
Numbered parts are unrelated; each lists some results of a single study.
Sequence of UniProt P42336 (whole entry, unmodified, looked up): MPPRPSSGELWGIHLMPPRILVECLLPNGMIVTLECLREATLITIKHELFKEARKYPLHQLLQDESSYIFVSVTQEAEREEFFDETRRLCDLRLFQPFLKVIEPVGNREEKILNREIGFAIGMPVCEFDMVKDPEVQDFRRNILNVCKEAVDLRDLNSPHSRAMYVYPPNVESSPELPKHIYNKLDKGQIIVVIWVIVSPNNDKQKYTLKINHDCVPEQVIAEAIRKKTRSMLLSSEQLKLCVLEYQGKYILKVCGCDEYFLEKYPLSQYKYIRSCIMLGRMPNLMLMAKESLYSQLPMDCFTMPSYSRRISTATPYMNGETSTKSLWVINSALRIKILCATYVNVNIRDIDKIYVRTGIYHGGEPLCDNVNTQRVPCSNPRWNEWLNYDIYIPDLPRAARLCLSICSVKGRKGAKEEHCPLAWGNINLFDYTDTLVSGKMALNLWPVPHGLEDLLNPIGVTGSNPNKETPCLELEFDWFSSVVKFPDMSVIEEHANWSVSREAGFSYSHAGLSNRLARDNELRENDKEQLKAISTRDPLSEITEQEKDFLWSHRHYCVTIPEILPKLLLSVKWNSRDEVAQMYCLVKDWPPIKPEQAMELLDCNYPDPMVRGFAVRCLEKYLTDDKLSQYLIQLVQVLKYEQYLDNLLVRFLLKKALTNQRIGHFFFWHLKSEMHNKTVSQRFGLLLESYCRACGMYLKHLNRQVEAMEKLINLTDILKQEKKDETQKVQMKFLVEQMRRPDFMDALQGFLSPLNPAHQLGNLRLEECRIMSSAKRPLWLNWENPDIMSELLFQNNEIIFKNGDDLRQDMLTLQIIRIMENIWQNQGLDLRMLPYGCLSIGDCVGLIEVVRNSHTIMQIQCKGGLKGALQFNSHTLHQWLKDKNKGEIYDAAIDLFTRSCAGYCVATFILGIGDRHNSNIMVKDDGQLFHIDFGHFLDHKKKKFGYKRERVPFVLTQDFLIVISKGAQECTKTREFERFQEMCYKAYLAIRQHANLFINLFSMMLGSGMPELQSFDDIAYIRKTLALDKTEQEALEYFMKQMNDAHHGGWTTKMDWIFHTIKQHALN
Sequence of UniProt P20794 (whole entry, looked up): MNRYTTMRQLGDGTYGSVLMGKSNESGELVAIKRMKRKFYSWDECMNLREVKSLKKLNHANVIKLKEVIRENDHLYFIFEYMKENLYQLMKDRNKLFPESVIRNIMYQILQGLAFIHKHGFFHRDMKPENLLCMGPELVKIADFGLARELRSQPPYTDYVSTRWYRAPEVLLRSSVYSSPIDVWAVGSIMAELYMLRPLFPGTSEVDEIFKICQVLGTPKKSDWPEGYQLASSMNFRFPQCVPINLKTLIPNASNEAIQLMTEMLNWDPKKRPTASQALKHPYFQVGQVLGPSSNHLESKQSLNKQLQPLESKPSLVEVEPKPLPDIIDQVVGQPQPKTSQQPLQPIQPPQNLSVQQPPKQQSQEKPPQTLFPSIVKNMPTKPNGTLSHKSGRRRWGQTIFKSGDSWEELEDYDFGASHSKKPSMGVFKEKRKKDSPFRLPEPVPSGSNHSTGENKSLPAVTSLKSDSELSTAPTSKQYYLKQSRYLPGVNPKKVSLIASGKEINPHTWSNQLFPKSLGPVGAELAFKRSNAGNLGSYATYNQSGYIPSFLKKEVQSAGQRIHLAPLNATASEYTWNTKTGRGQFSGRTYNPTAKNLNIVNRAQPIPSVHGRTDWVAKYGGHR
Sequence of UniProt P42681 (whole entry, looked up): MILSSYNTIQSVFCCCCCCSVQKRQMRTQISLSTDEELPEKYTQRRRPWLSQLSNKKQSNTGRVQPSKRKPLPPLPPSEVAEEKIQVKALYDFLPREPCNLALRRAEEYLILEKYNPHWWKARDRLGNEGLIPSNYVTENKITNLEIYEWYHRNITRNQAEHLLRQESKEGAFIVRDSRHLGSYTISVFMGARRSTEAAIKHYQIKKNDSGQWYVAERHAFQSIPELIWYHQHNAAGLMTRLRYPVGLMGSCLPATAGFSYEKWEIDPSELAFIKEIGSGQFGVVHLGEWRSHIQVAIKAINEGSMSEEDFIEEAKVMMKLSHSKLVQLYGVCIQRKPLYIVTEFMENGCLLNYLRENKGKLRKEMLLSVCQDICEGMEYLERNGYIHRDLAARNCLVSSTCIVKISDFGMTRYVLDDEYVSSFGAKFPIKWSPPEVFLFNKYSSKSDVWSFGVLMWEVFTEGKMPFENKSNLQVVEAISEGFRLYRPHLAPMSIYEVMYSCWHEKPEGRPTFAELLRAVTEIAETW
Sequence of UniProt Q16832 (whole entry, looked up): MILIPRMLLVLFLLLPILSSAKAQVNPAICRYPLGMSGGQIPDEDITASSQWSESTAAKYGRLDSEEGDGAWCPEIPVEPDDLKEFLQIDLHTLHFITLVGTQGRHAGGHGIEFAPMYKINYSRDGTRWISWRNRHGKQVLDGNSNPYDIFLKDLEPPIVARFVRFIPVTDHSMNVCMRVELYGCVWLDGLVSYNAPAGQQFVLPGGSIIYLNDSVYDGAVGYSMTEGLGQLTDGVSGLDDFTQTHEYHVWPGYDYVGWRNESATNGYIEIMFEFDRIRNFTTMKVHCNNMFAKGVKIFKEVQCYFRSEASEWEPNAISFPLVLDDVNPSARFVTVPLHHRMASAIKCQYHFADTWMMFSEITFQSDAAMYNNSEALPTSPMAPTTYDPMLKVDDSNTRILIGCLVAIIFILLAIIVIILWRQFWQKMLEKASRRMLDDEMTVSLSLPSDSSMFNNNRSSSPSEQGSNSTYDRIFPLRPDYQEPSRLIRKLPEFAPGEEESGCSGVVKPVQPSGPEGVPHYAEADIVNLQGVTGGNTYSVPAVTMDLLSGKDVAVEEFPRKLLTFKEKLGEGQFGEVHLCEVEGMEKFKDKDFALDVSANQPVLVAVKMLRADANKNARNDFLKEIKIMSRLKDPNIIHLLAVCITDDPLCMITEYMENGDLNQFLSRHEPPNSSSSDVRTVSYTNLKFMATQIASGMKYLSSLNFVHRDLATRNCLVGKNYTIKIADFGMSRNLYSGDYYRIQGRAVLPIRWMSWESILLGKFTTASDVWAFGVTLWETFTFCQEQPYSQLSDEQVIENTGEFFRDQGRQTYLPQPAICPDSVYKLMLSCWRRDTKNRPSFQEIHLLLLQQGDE
Sequence of UniProt P41595 (whole entry, looked up): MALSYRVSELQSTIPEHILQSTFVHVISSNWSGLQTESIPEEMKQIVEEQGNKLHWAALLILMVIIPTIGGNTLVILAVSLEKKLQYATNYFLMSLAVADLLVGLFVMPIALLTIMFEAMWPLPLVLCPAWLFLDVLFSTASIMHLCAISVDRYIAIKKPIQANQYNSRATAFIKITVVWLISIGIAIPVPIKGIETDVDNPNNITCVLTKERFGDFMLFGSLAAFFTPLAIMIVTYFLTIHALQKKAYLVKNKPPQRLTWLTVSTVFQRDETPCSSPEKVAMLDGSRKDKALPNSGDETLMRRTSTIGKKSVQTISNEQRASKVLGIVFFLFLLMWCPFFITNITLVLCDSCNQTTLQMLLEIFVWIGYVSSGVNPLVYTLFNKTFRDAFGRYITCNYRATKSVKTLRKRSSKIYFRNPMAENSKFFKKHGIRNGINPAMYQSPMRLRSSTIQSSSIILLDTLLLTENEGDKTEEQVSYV
Sequence of UniProt Q13882 (whole entry, looked up): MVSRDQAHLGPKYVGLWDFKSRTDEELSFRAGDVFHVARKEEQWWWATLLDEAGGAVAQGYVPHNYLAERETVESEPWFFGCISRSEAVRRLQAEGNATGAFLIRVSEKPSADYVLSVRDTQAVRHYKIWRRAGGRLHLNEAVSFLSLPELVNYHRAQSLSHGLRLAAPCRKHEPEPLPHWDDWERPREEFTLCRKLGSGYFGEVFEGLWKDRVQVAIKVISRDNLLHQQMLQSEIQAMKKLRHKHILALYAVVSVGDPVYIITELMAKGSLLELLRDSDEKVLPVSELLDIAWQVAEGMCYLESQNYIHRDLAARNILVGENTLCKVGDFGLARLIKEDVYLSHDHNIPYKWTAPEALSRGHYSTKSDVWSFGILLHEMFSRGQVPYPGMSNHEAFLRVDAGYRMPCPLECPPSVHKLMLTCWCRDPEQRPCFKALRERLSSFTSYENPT
Sequence of UniProt Q9H3Y6 (whole entry, looked up): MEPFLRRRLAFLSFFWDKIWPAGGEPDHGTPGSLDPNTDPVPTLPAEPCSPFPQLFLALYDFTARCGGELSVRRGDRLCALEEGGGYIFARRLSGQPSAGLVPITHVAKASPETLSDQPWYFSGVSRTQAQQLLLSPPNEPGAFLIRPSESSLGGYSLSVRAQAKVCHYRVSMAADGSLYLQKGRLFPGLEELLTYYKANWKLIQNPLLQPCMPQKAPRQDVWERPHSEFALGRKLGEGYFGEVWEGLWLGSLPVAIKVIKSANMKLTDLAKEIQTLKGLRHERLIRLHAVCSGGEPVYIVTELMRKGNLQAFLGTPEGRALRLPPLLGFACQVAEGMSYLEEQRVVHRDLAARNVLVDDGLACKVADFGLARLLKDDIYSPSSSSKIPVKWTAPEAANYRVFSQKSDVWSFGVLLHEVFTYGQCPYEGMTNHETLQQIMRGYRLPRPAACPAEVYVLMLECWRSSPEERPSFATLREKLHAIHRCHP
Sequence of UniProt Q9HBH9 (whole entry, looked up): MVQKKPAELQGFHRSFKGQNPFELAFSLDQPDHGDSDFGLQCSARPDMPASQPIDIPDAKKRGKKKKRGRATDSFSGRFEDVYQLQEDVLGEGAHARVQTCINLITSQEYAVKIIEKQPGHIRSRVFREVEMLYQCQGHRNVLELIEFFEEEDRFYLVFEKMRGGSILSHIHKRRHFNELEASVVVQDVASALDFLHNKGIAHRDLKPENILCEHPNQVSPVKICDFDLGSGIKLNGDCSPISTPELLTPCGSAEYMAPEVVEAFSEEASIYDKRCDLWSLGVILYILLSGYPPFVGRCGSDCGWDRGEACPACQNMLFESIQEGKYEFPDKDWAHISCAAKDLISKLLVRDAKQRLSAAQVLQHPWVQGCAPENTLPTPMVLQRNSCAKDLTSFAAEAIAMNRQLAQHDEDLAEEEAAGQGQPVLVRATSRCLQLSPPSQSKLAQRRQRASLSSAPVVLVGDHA

Series 1
Compound: C=CC(=O)N1CCC[C@@H](n2nc(-c3ccc(Oc4ccccc4)cc3)c3c(N)ncnc32)C1
Mode: inhibitor
Concentration: 1 µM
Measurement: inhibition
Phosphatidylinositol 4,5-bisphosphate 3-kinase catalytic subunit alpha isoform (PIK3CA, Homo sapiens, UniProt P42336, E545K); enzyme activity: 2%
Serine/threonine-protein kinase Nek11 (NEK11, Homo sapiens, UniProt Q8NG66); enzyme activity: 13%
Epidermal growth factor receptor (EGFR, Homo sapiens, UniProt P00533, T790M): 96%
Receptor-interacting serine/threonine-protein kinase 4 (RIPK4, Homo sapiens, UniProt P57078); enzyme activity: 9%
MAP kinase-interacting serine/threonine-protein kinase 2 (MKNK2, Homo sapiens, UniProt Q9HBH9): 49%
Phosphatidylinositol 4,5-bisphosphate 3-kinase catalytic subunit alpha isoform (PIK3CA, Homo sapiens, UniProt P42336, Q546K); enzyme activity: 14%
Serine/threonine-protein kinase 4 (STK4, Homo sapiens, UniProt Q13043): 9%
Wee1-like protein kinase (WEE1, Homo sapiens, UniProt P30291); enzyme activity: 0%
Tyrosine-protein kinase Srms (SRMS, Homo sapiens, UniProt Q9H3Y6); enzyme activity: 100%

Series 2
SMILES: CCCOc1ccc([C@H]2[C@H](C(=O)O)[C@@H](c3ccc4c(c3)OCO4)CN2CC(=O)Nc2c(CC)cccc2CC)cc1
Read-out: binding
Technique: radioligand binding
Concentration: 10 µM
Measurement: inhibition
5-hydroxytryptamine receptor 2B (HTR2B, Homo sapiens, UniProt P41595): 12.8%
5-hydroxytryptamine receptor 1D (HTR1D, Homo sapiens, UniProt P28221): -3.09%
5-hydroxytryptamine receptor 3A (HTR3A, Homo sapiens, UniProt P46098): -5.22%

Series 3
SMILES: COc1ccc(-c2cnc3c(-c4ccsc4)cnn3c2)cc1
Read-out: enzyme activity
Mode: inhibitor
Concentration: 0.5 µM
Baseline: control
Measurement: remaining activity
Mitogen-activated protein kinase 14 (MAPK14, Homo sapiens, UniProt Q16539): 120%
Misshapen-like kinase 1 (MINK1, Homo sapiens, UniProt Q8N4C8): 63.7%
Serine/threonine-protein kinase MARK2 (MARK2, Homo sapiens, UniProt Q7KZI7): 82.1%
cGMP-dependent protein kinase 2 (PRKG2, Homo sapiens, UniProt Q13237): 92%
Dual specificity mitogen-activated protein kinase kinase 1 (MAP2K1, Homo sapiens, UniProt Q02750): 98.2%
G protein-coupled receptor kinase 4 (GRK4, Homo sapiens, UniProt P32298): 97%
Myosin-IIIb (MYO3B, Homo sapiens, UniProt Q8WXR4): 84%
Serine/threonine-protein kinase PLK3 (PLK3, Homo sapiens, UniProt Q9H4B4): 98%
Cyclin-dependent kinase 1, with cyclin A (CDK1, Homo sapiens, UniProt P06493): 87.4%
Tyrosine-protein kinase TXK (TXK, Homo sapiens, UniProt P42681): 85.2%
Mitogen-activated protein kinase 1 (MAPK1, Homo sapiens, UniProt P28482): 99.2%
Serine/threonine-protein kinase Nek3 (NEK3, Homo sapiens, UniProt P51956): 87.7%
Discoidin domain-containing receptor 2 (DDR2, Homo sapiens, UniProt Q16832): 98.2%
MAP/microtubule affinity-regulating kinase 4 (MARK4, Homo sapiens, UniProt Q96L34): 92.7%

Series 4
Structure (SMILES): COc1ccc2[nH]c3c4[nH]c5ccc(OC)cc5c4c4c(c3c2c1)C(=O)NC4=O
Concentration: 1 µM
Measurement: remaining binding
Tyrosine-protein kinase ITK/TSK (ITK, Homo sapiens, UniProt Q08881); competitive binding panel; baseline: vehicle: 89%
Phosphatidylinositol 4,5-bisphosphate 3-kinase catalytic subunit alpha isoform (PIK3CA, Homo sapiens, UniProt P42336); competitive binding panel; baseline: vehicle: 91%
Dual specificity mitogen-activated protein kinase kinase 4 (MAP2K4, Homo sapiens, UniProt P45985); competitive binding panel, item: MEK4; baseline: vehicle: 91%
Phosphatidylinositol 4,5-bisphosphate 3-kinase catalytic subunit alpha isoform (PIK3CA, Homo sapiens, UniProt P42336, C420R); competitive binding panel; baseline: vehicle: 90%
MAP kinase-activated protein kinase 5 (MAPKAPK5, Homo sapiens, UniProt Q8IW41); competitive binding panel; baseline: vehicle: 90%
Serine/threonine-protein kinase MAK (MAK, Homo sapiens, UniProt P20794); competitive binding panel; baseline: vehicle: 82%
Receptor-interacting serine/threonine-protein kinase 1 (RIPK1, Homo sapiens, UniProt Q13546); competitive binding panel; baseline: vehicle: 90%
Protein-tyrosine kinase 6 (PTK6, Homo sapiens, UniProt Q13882); competitive binding; BRK: 81%
